Experimental data pooled from the literature.
Compare with care: the assays were run in different laboratories. Values joined by “and” are separate records of one study, mostly repeats; a detail may differ. ± marks the error that the study gave.
AKR1C1: Aldo-keto reductase family 1 member C1 (AKR1C1, Homo sapiens, UniProt Q04828)
Sequence of UniProt Q04828 (whole entry, looked up): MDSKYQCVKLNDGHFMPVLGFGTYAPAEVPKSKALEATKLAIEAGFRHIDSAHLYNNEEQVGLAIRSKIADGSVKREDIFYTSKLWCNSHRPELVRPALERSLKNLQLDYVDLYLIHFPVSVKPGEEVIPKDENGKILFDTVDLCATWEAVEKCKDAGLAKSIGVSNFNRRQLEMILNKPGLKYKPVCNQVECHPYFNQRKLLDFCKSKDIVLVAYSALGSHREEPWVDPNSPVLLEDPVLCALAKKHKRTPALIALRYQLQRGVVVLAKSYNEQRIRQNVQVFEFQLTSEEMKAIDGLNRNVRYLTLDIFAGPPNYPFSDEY
PPO3: PPO3 (Agaricus bisporus, UniProt C7FF04)
Sequence of UniProt C7FF04 (whole entry, looked up): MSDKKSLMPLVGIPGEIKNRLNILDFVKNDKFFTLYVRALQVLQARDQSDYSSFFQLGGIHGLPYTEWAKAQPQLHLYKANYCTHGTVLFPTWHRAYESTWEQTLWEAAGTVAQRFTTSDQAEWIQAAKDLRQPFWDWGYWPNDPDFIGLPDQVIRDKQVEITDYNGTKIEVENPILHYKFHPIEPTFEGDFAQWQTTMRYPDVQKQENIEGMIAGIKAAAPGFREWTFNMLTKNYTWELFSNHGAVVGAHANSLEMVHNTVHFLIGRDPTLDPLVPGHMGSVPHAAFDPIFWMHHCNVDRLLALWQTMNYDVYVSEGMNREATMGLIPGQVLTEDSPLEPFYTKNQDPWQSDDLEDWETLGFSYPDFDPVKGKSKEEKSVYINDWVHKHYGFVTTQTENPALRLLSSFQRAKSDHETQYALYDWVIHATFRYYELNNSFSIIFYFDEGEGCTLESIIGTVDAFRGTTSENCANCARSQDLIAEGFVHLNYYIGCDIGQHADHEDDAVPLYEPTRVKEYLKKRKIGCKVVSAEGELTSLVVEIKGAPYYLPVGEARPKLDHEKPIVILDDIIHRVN
IDO1: Indoleamine 2,3-dioxygenase 1 (IDO1, Homo sapiens, UniProt P14902)
Sequence of UniProt P14902 (whole entry, looked up): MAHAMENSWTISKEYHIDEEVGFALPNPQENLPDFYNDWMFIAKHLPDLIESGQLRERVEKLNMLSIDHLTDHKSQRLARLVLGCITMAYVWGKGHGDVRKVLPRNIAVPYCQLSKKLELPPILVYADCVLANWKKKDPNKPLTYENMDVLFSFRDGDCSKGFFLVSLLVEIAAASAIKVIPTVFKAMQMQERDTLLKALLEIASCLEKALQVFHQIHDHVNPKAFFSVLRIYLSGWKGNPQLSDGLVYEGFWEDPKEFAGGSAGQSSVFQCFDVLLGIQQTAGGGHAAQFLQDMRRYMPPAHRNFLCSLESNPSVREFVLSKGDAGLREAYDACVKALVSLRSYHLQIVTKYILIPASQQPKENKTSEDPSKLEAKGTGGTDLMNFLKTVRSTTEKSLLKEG
SIRT1: NAD-dependent protein deacetylase sirtuin-1 (SIRT1, Homo sapiens, UniProt Q96EB6)
Sequence of UniProt Q96EB6 (whole entry, looked up): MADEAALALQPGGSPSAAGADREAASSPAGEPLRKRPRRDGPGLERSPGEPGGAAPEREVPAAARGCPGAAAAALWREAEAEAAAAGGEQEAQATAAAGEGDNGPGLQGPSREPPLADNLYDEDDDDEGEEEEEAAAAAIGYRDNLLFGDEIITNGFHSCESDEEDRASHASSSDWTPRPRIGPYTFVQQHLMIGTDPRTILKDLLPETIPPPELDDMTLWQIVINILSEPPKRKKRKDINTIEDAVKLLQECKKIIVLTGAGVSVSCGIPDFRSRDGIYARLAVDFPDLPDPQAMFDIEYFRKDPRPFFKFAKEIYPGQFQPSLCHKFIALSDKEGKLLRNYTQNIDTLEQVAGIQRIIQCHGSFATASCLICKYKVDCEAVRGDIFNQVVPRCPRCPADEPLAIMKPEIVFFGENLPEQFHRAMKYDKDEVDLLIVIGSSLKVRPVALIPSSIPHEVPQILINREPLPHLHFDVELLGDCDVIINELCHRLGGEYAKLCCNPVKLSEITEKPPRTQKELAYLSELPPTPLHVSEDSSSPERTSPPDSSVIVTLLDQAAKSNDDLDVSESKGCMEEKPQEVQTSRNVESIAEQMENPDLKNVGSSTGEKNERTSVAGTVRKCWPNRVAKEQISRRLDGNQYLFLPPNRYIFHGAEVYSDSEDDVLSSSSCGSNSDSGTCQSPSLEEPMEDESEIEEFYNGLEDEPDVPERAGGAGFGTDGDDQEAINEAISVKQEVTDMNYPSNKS
TRPV1: Transient receptor potential cation channel subfamily V member 1 (TRPV1, Homo sapiens, UniProt Q8NER1)
Sequence of UniProt Q8NER1 (whole entry, looked up): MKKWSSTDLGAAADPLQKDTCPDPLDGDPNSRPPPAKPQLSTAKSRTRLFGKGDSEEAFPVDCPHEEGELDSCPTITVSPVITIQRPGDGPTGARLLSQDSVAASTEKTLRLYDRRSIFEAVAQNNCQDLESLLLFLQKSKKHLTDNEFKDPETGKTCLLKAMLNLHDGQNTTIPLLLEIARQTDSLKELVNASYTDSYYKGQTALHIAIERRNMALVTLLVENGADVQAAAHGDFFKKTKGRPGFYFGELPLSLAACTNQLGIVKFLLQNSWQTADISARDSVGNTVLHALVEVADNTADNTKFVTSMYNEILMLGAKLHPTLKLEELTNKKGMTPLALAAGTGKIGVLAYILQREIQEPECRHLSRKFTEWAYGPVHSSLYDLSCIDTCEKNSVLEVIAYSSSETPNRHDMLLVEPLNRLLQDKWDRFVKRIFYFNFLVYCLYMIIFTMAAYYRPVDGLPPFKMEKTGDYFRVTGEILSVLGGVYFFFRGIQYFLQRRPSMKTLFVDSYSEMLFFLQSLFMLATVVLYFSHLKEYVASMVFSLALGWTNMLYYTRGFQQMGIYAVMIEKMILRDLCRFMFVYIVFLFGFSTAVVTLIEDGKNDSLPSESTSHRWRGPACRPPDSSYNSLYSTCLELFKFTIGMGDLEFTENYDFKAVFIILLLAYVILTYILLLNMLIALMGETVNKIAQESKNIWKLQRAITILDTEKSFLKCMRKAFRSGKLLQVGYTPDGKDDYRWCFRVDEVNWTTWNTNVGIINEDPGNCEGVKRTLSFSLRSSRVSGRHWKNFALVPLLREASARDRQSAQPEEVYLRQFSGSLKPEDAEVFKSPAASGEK
Epha4 ectodomain: Ephrin type-A receptor 4, ectodomain (Epha4, Mus musculus, UniProt Q03137)
Sequence of UniProt Q7Z2W7 (whole entry, looked up): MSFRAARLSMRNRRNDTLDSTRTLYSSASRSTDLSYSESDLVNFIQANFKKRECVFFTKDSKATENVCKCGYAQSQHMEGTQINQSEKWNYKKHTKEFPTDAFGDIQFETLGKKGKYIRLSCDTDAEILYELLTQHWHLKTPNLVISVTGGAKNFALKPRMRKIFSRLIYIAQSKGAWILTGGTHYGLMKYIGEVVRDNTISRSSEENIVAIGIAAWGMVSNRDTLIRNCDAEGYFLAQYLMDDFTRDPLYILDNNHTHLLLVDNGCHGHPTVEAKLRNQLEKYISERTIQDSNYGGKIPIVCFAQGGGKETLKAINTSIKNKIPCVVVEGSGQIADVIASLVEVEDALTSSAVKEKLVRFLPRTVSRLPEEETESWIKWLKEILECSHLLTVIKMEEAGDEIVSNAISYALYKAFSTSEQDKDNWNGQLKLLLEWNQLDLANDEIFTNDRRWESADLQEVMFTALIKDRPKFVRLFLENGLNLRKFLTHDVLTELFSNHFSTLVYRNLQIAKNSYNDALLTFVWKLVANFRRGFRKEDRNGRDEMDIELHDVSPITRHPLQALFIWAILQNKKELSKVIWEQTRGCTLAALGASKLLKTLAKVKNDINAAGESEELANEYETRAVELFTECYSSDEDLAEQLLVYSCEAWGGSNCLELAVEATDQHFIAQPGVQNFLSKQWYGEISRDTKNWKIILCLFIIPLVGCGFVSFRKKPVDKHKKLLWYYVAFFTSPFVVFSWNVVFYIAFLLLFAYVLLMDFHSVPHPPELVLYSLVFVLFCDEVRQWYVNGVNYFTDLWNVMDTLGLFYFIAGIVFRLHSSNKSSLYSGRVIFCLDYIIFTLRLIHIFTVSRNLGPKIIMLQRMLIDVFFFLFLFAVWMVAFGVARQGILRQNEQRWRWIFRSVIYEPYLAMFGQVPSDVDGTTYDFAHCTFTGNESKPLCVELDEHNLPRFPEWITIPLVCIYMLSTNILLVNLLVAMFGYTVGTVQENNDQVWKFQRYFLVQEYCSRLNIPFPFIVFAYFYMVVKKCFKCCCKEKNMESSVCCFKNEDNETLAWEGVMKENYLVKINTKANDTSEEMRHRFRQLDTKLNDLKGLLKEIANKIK
Sequence of UniProt Q03137 (whole entry, looked up): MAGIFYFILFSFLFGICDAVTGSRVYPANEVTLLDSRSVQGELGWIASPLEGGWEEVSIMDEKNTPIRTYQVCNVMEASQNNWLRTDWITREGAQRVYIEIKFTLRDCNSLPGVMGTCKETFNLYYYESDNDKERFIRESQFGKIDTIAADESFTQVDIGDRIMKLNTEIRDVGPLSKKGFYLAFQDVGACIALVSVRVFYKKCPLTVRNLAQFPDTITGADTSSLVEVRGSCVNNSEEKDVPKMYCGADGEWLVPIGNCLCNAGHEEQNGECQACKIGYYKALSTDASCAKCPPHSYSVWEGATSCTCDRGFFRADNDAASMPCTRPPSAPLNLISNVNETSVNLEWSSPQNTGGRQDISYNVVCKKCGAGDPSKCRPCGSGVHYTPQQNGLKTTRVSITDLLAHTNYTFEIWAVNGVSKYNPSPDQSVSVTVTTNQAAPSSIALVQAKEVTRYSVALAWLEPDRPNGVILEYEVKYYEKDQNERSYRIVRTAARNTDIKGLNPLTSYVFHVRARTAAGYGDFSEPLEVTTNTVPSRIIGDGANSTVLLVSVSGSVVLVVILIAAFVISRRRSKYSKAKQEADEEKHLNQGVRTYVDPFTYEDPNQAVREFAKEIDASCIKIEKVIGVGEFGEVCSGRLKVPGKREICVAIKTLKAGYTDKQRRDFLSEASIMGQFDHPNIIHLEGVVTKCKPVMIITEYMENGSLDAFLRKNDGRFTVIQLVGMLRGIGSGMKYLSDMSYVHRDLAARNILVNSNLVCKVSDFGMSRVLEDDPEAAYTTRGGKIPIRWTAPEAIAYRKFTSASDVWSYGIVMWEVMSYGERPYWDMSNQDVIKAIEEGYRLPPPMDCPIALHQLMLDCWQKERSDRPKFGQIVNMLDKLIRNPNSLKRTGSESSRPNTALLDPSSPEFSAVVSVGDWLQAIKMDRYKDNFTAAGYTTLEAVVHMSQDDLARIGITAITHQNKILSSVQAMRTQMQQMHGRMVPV

SMILES | target | assay | system | setting | how to read | inhibition
COc1cc2c(cc1Cl)[C@H]1CC[C@@]3(C)C(=O)CC[C@H]3[C@@H]1CC2 | AKR1C1 | enzyme activity, inhibitor, absorbance | – | 10 µM, pH 9 | – | 17%
CC(C)Oc1cc(NC(=O)[C@H](Cc2ccccc2)NC(=O)c2ccc(N)c(OCc3ccccc3)c2)ccc1C(=O)NCC(=O)O | Histone acetyltransferase p300, with HIF-1α (EP300, Homo sapiens, UniProt Q09472) | fluorescence anisotropy competition | – | concentration not given | – | no inhibition
Cc1ccc(C2=Nc3ccccc3SC(c3ccc(C=CC(=O)c4ccccc4)cc3)C2)cc1 (stereo not shown) | PPO3 | enzyme activity, inhibitor | – | 25 µg/mL | – | 54%
C[C@@H](N)C1CCN(S(=O)(=O)c2cccc3cnccc23)CC1 | CLK4 (Homo sapiens, UniProt Q9HAZ1) | cell-free assay, competition with immobilised ligand | – | 10 µM | – | > 95%
C[C@]12CC[C@@H]3c4ccc(O)c(I)c4CC[C@H]3[C@@H]1CCC2=O | AKR1C1 | enzyme activity, inhibitor, absorbance | – | 10 µM, pH 9 | – | 8.3%
CC(=O)C12NC(C)(C)CC1(C)C(=O)C1=C2c2c(c3c4n2C(C)(C)CC2=C4C4(CC(C)(C)NC(C)(C4)C2=O)CC3(C)C)C(=O)C(C)(C)N1 (single isomer, unassigned; (+)) | TRPM8 (Homo sapiens, UniProt Q7Z2W7) | ion current, inhibitor, patch clamp | HEK-293T | 10 µM | – | 57.3% and 64.5%
COc1cc(C)c2c(=O)cc(C[C@@H](C)O)oc2c1[C@@H]1O[C@H](CO)[C@@H](O)[C@H](O)[C@H]1O | IDO1 | kynurenine formation | – | 100 µM | – | 26.7 ± 0.98%
C[C@@]12CC[C@@H]3c4ccc(O)c(Br)c4CC[C@H]3[C@@H]1CCC2=O | AKR1C1 | enzyme activity, inhibitor, absorbance | – | 100 µM, pH 9 | – | 14.2%
COc1ccc(O)c(C2=NN(c3ccc(S(N)(=O)=O)cc3)C(c3ccc(Br)cc3)C2)c1 (stereo not shown) | CA9 (Homo sapiens, UniProt Q16790) | enzyme activity, inhibitor | – | 1 mM | – | 23%
Cc1cc2c(c(O)c1O)C(=O)c1c(O)cc(O)cc1C2=O | DRD1 (Homo sapiens, UniProt P21728) | cAMP, antagonist | CHO | 50 µM | – | -30.4%
COc1cc(F)c(C(C)C)cc1C1=C(CN2C(=O)O[C@H](c3cc(C(F)(F)F)cc(C(F)(F)F)c3)[C@@H]2C)CC(C)(C)CC1 | Cholesteryl ester transfer protein (Homo sapiens, UniProt P11597) | plasma enzyme activity, inhibitor | healthy male human, plasma | oral, 400 mg single dose, 24 h post-dose | – | 43%
C[C@@H]1O[C@@H](OCc2cc(O)c3c(c2)[C@H]([C@@H]2OC[C@@H](O)[C@H](O)[C@H]2O)c2cccc(O)c2C3=O)[C@H](O)[C@H](O)[C@H]1O | IDO1 | kynurenine formation | – | 100 µM | – | 67.8 ± 1.38%
COCC12C(=O)NC3C4(C(OC)CC1O)C1CC5(O)C(OC)C(O)C(OC(C)=O)(C1C5OC(=O)c1ccccc1)C3(O)C(OC)C24 (stereo not shown) | MAPKAPK5 (Homo sapiens, UniProt Q8IW41) | enzyme activity | – | 25 µM, together with: RBER-CHKtide | – | no inhibition
COc1ccc(-c2ccc3ncc4c(c3c2)n(-c2ccc(N3CCNCC3)c(C(F)(F)F)c2)c(=O)n4C)cn1 | ATR (Homo sapiens, UniProt Q13535) | autophosphorylation, Western blot, refers to: phospho-ATR | HEK293 | concentration not given, together with: neocarzinostatin | – | no inhibition
O=C(O)CN1C(=O)/C(=C/c2c[nH]nc2-c2cc(F)cc(F)c2)SC1=S | SIRT1 | enzyme activity, inhibitor, fluorescence | – | 10 µM | – | < 30%
COc1ccc2c(c1)CC[C@@H]1[C@@H]2CC[C@@]2(C)C(=O)CC[C@@H]12 | AKR1C1 | enzyme activity, inhibitor, absorbance | – | 100 µM, pH 9 | – | 20%
COc1cc(C(=O)NC2CCC(N3CCN(CC4CCC5(CCCC5)C4)CC3)CC2)c(F)cc1Nc1ncc2c(n1)N(C1CCCC1(F)F)CC(F)(F)C(=O)N2C (stereo not shown) | CDK7 (Homo sapiens, UniProt P50613) | cell-free assay, TR-FRET | – | 10 µM | – | 7.58%
C[C@]12CC[C@@H]3c4cc(Cl)c(O)cc4CC[C@H]3[C@@H]1CCC2=O | AKR1C1 | enzyme activity, inhibitor, absorbance | – | 10 µM, pH 9 | – | 50%
CC(C)C[C@H](NC(=O)c1ccc2c(c1)nc(-c1c(F)cccc1Cl)n2C1CCCCC1)C(=O)O | SIRT1 | enzyme activity, inhibitor, fluorescence | – | 10 µM | – | < 30%
Cc1ccc(C2=Nc3ccccc3SC(c3ccc(N(C)C)cc3)C2)cc1 (stereo not shown) | PPO3 | enzyme activity, inhibitor | – | 25 µg/mL | – | 25%
N[C@@H](CCC(=O)N[C@@H](CS[Se]Cc1ccc(-c2cccc(C(O)c3ccc(Cl)c(Cl)c3)c2)cc1)C(=O)NCC(=O)O)C(=O)O (stereo partly shown) | Cathepsin B (CTSB, Homo sapiens, UniProt P07858) | enzyme activity | – | concentration not given, together with: Z-RR-AMC substrate, 1 mM GSH | – | no inhibition
O=C(O)c1ccc(-c2coc3ncc(-c4ccccc4)cc23)cc1Cl | MKNK1 (Homo sapiens, UniProt Q9BUB5) | kinase activity, inhibitor, cell-free kinase panel | – | 1 µM | – | inhibited

SMILES | target | assay | system | setting | how to read | inhibition
O=C(OC(C(F)(F)F)C(F)(F)F)N1CCC(Cn2ccc3cc(F)ccc32)CC1 | Faah (Rattus norvegicus, UniProt P97612) | – | – | 10 µM | – | inactive
CCCCCCCC/C=C\CCCCCCCC(=O)SCCNC(=O)CCNC(=O)[C@H](O)C(C)(C)COP(=O)(O)OP(=O)(O)OC[C@H]1O[C@@H](n2cnc3c(N)ncnc32)[C@H](O)[C@@H]1OP(=O)(O)O | KCNK5 (Homo sapiens, UniProt O95279) | ion current, inhibitor, inside-out patch clamp | Xenopus oocytes | 10 µM | – | 70 ± 7%
C[C@@]12CC[C@@H]3c4cc(I)c(O)cc4CC[C@H]3[C@@H]1CCC2=O | AKR1C1 | enzyme activity, inhibitor, absorbance | – | 100 µM, pH 9 | – | 42.5%
CC(=O)Nc1cc(COc2c(Cl)cc(CC(N)C(=O)O)cc2Cl)c2oc(-c3ccccc3)nc2c1 (stereo not shown) | SLC38A2 (Homo sapiens, UniProt Q96QD8) | L-alanine uptake | Xenopus oocytes | 1 and 10 µM, 30 min, together with: L-[14C]alanine 50 µM | – | no inhibition
C[C@@]12CC[C@@H]3c4ccc(O)cc4CC[C@H]3[C@@H]1CCC2=O | AKR1C1 | enzyme activity, inhibitor, absorbance | – | 100 µM, pH 9 | – | 22.5%
CCCOc1ccc(C2CC(c3ccc(C)cc3)=Nc3ccccc3S2)cc1OC (stereo not shown) | PPO3 | enzyme activity, inhibitor | – | 25 µg/mL | – | 38%
COc1cc(C)c2c(=O)cc(C[C@@H](C)O)oc2c1[C@@H]1O[C@H](CO)[C@@H](O)[C@H](O)[C@H]1OC(=O)/C=C/c1ccc(O)cc1 | IDO1 | kynurenine formation | – | 100 µM | – | 49.32 ± 0.27%
Cc1cc(C)nc(SCC(=O)Nc2ncc(Cc3cccc4ccccc34)s2)n1 | SIRT1 | enzyme activity, inhibitor | – | 10 µM | – | 37%
O=C(COc1ccc(Cl)c(Cl)c1)Nc1ccc[n+](Cc2ccc(Cl)c(Cl)c2)c1 | TRPV1 | calcium influx, antagonist | HeLa transfected | 1 µM, together with: capsaicin 5 µM | – | inhibited
CC(C)Oc1ccc(B(O)O)c(F)n1 | PRE2 (Saccharomyces cerevisiae S288c, UniProt P30656) | 20S proteasome activity | – | 100 µM, together with: Suc-LLVY-AMC | – | ≤ 20%
NCCC(=O)N[C@@H](Cc1c[nH]c2ccccc12)C(=O)N[C@@H](Cc1ccc(Cl)cc1)C(=O)N[C@@H](Cc1ccncc1)C(N)=O | Epha4 ectodomain | ephrin-A5 binding, antagonist, ELISA | – | 500 µM, together with: ephrin-A5-AP | – | 75%
CC(=O)c1cc(CO[C@H]2OC[C@H](O[C@@H]3O[C@H](CO)[C@@H](O)[C@H](O)[C@H]3O)[C@@H](O)[C@@H]2O)c2cccc(O[C@@H]3O[C@@H](C)[C@H](O)[C@@H](O)[C@H]3O)c2c1O | IDO1 | kynurenine formation | – | 100 µM | – | 52.35 ± 0.48%
C[C@H](NC(=O)CNC(=O)[C@@H]1CSSC[C@H](NC(=O)[C@H](C)NC(=O)CN)C(=O)N[C@@H](CCCNC(=N)N)C(=O)N[C@@H](CCCNC(=N)N)C(=O)N[C@@H](CCC(=O)O)C(=O)N[C@@H]([C@@H](C)O)C(=O)N[C@@H](C)C(=O)N[C@@H](Cc2c[nH]c3ccccc23)C(=O)N[C@@H](C)C(=O)N1)C(=O)O | Integrin alpha-5/beta-1 (Homo sapiens, UniProt P05556+P08648) | phage binding | – | concentration not given, together with: CRGDC-displaying phage | – | inhibited
Cc1cc2c(NC(=O)N[C@@H]3CC(C)(C)Oc4c(OC(F)(F)F)cccc43)cccc2cn1 | TRPV1 | acid-evoked calcium influx, antagonist | HEK293, human | 11.25 µM, pH 5 | – | 35.4 ± 2.1%
CCCC[C@H](NC(C)=O)C(=O)N1CCC[C@H]1C(=O)N[C@@H](CO)C(=O)N[C@@H](CO)C(=O)N[C@@H](C)C(=O)N[C@@H](CO)C(=O)N[C@]1(C)CCCCCCC=CCCC[C@@](C)(C(=O)N[C@@H](CCCCN)C(=O)N[C@@H](CCC(=O)O)C(=O)N[C@H](C(=O)N[C@@H](CCC(N)=O)C(N)=O)[C@@H](C)CC)NC(=O)[C@H](CCC(N)=O)NC(=O)[C@H](CCCCN)NC(=O)[C@H](CCCNC(=N)N)NC(=O)[C@H](CC(C)C)NC(=O)[C@H](CC(C)C)NC(=O)[C@H](CCC(N)=O)NC1=O | UBA1 (Homo sapiens, UniProt P22314) | ubiquitin thioester transfer to UBE2D2, inhibitor | – | concentration not given, staple-scanning screen | – | inactive
CN1CCN(CCCNC(=O)c2cc3c(-c4ccc(Cl)cc4)nn(C)c3s2)CC1 | RAD51 (Homo sapiens, UniProt Q06609) | D-loop formation | – | 10 x IC50, together with: Ca2+ 1 mM | baseline: DMSO | > 2 fold
C[C@]12CC[C@@H]3c4cc(I)c(O)c(I)c4CC[C@H]3[C@@H]1CCC2=O | AKR1C1 | enzyme activity, inhibitor, absorbance | – | 10 µM, pH 9 | – | 42.2%
NCCC(=O)N[C@@H](Cc1c[nH]c2ccccc12)C(=O)N[C@@H](Cc1ccc(Cl)cc1)C(=O)N[C@@H](Cc1ccccc1)C(N)=O | Epha4 ectodomain | ephrin-A5 binding, antagonist, ELISA | – | 500 µM, together with: ephrin-A5-AP | – | > 50%
NC(=O)c1ccc(C(=O)NOCc2ccc(Sc3cccc(Cl)c3)c(C(F)(F)F)c2)cc1 | SIRT3 (Homo sapiens, UniProt Q9NTG7) | cell-free assay, inhibitor | – | 100 µM | – | 17.9%
CNC(=O)c1ccccc1Oc1nc(Nc2cc(OC)c(OC)c(OC)c2)ncc1Br | SRC (Homo sapiens, UniProt P12931) | enzyme activity, inhibitor | – | 1 µM | – | 30 to 50%
OB1OCc2ccc(-n3cc(Sc4cccc(Cl)c4)c4ccccc43)cc21 | LARS1 (Homo sapiens, UniProt Q9P2J5) | aminoacylation, inhibitor | – | 100 µM | – | > 50%

A few entries again:
SMILES | target | assay | system | setting | how to read | inhibition
COc1cc(F)c(C(C)C)cc1C1=C(CN2C(=O)O[C@H](c3cc(C(F)(F)F)cc(C(F)(F)F)c3)[C@@H]2C)CC(C)(C)CC1 | Cholesteryl ester transfer protein (Homo sapiens, UniProt P11597) | plasma enzyme activity, inhibitor | healthy male human, plasma | oral, 400 mg single dose, 24 h post-dose | – | 43%
C[C@@H]1O[C@@H](OCc2cc(O)c3c(c2)[C@H]([C@@H]2OC[C@@H](O)[C@H](O)[C@H]2O)c2cccc(O)c2C3=O)[C@H](O)[C@H](O)[C@H]1O | IDO1 | kynurenine formation | – | 100 µM | – | 67.8 ± 1.38%
COCC12C(=O)NC3C4(C(OC)CC1O)C1CC5(O)C(OC)C(O)C(OC(C)=O)(C1C5OC(=O)c1ccccc1)C3(O)C(OC)C24 (stereo not shown) | MAPKAPK5 (Homo sapiens, UniProt Q8IW41) | enzyme activity | – | 25 µM, together with: RBER-CHKtide | – | no inhibition
COc1ccc(-c2ccc3ncc4c(c3c2)n(-c2ccc(N3CCNCC3)c(C(F)(F)F)c2)c(=O)n4C)cn1 | ATR (Homo sapiens, UniProt Q13535) | autophosphorylation, Western blot, refers to: phospho-ATR | HEK293 | concentration not given, together with: neocarzinostatin | – | no inhibition
O=C(O)CN1C(=O)/C(=C/c2c[nH]nc2-c2cc(F)cc(F)c2)SC1=S | SIRT1 | enzyme activity, inhibitor, fluorescence | – | 10 µM | – | < 30%
COc1ccc2c(c1)CC[C@@H]1[C@@H]2CC[C@@]2(C)C(=O)CC[C@@H]12 | AKR1C1 | enzyme activity, inhibitor, absorbance | – | 100 µM, pH 9 | – | 20%
